Published values collected from several papers.
Protocols differ between the studies behind these lines. In brackets after ≈: the same amount, converted by molar mass.

C#CC[C@H](c1nc2cc(Cl)ccc2c(=O)n1Nc1ccccc1)N(CCCN)C(=O)c1cccc(Cl)c1F
maximum inhibition (human coronavirus OC43; virus-induced cell killing; MRC-5; screen): 2.09%

CN(C)[C@@H]1C(O)=C(C(N)=O)C(=O)[C@@]2(O)C(O)=C3C(=O)c4c(O)cccc4[C@@](C)(O)[C@H]3C[C@@H]12
MIC (Salmonella enterica; 20 h, pH 7.2): 2 µg/mL

CCCCCCCCCC(=O)N[C@@H](Cc1c[nH]c2ccccc12)C(=O)N[C@H](CC(N)=O)C(=O)N[C@@H](CC(=O)O)C(=O)N[C@@H]1C(=O)NCC(=O)N[C@@H](CCCN)C(=O)N[C@@H](CC(=O)O)C(=O)N[C@H](C)C(=O)N[C@@H](CC(=O)O)C(=O)NCC(=O)N[C@H](CO)C(=O)N[C@@H]([C@H](C)CC(=O)O)C(=O)N[C@@H](CC(=O)c2ccccc2N)C(=O)O[C@@H]1C
MIC (Salmonella enterica; broth microdilution; ATCC 700720; 24 h): > 50 µM

O=[N+]([O-])c1cc2c(ccc3cc(Br)ccc32)o1
MIC90 (Salmonella enterica; REMA): > 32 µg/mL

CC[C@H](C)CCCCC(=O)N[C@@H](CCN)C(=O)N[C@H](C(=O)N[C@@H](CCN)C(=O)N[C@H]1CCNC(=O)[C@H]([C@@H](C)O)NC(=O)[C@H](CCN)NC(=O)[C@H](CCN)NC(=O)[C@H](CC(C)C)NC(=O)[C@@H](Cc2ccccc2)NC(=O)[C@H](CCN)NC1=O)[C@@H](C)O
MIC (Salmonella enterica; broth microdilution; ATCC 700720; 24 h): < 1 µM

CC[C@H](C)[C@H](NC(=O)[C@H](CC(N)=O)NC(=O)[C@H](Cc1ccccc1)NC(=O)[C@H](CCCNC(=N)N)NC(=O)[C@H](CCCNC(=N)N)NC(=O)[C@@H](N)CCCCN)C(=O)N[C@@H](CCCCN)C(=O)N[C@@H](CC(C)C)C(=O)N[C@@H](Cc1c[nH]c2ccccc12)C(=O)N[C@@H](CCCCN)C(=O)N[C@H](C(=O)N[C@@H](Cc1ccccc1)C(=O)O)[C@@H](C)O
MBC (Salmonella enterica): 128 µg/mL (≈ 78.2 µM)

COc1ccc2c(ccc3oc([N+](=O)[O-])c(OC)c32)c1
MIC90 (Salmonella enterica; REMA): > 32 µg/mL

COc1ccc2cc(-c3nc(-c4ccc([S+](C)[O-])cc4)[nH]c3-c3ccncc3)ccc2c1 (centres unmarked)
maximum inhibition (human coronavirus OC43; virus-induced cell killing; MRC-5; screen): 46.4%

[H]/N=C(/N)N[C@H]1[C@H](O)[C@@H](O)[C@H](O[C@@H]2O[C@@H](C)[C@](O)(C=O)[C@H]2O[C@@H]2O[C@@H](CO)[C@H](O)[C@@H](O)[C@@H]2NC)[C@@H](N/C(N)=N\[H])[C@@H]1O
MIC (Salmonella enterica; 20 h, pH 5.5): > 4100 µg/mL

COC(=O)c1ccc2c(ccc3oc([N+](=O)[O-])cc32)c1
MIC90 (Salmonella enterica; REMA): > 32 µg/mL

CC[C@H](C)[C@H](NC(=O)[C@H](Cc1ccccc1)NC(=O)[C@@H](NC(=O)[C@H](CO)NC(=O)[C@@H](N)CCCNC(=N)N)[C@@H](C)CC)C(=O)N[C@@H](CCCCN)C(=O)N[C@@H](Cc1ccc(O)cc1)C(=O)N[C@@H](CCCCN)C(=O)N[C@@H](CO)C(=O)N[C@@H](CCCCN)C(=O)N1CCC[C@H]1C(=O)N[C@@H](Cc1ccccc1)C(=O)N[C@@H](CS)C(=O)N[C@@H](CCC(=O)O)C(=O)N[C@@H](CCCCN)C(=O)N[C@@H](CC(C)C)C(=O)N[C@@H](CC(C)C)C(=O)N[C@@H](CO)C(=O)N[C@@H](Cc1c[nH]c2ccccc12)C(=O)N[C@H](C(=O)N[C@@H](CCCCN)C(=O)N[C@@H](CO)C(=O)O)C(C)C
MBC (Salmonella enterica): 128 µg/mL (≈ 47.6 µM)

Some of these lines once more:
CC[C@H](C)[C@H](NC(=O)[C@H](CC(N)=O)NC(=O)[C@H](Cc1ccccc1)NC(=O)[C@H](CCCNC(=N)N)NC(=O)[C@H](CCCNC(=N)N)NC(=O)[C@@H](N)CCCCN)C(=O)N[C@@H](CCCCN)C(=O)N[C@@H](CC(C)C)C(=O)N[C@@H](Cc1c[nH]c2ccccc12)C(=O)N[C@@H](CCCCN)C(=O)N[C@H](C(=O)N[C@@H](Cc1ccccc1)C(=O)O)[C@@H](C)O
MBC (Salmonella enterica): 128 µg/mL (≈ 78.2 µM)
